# Experimental data from different studies.
# Compare with care: the assays were run in different laboratories.
# EGFR L858R/T790M: Epidermal growth factor receptor (EGFR, Homo sapiens, UniProt P00533, L858R/T790M)
# EGFR: Epidermal growth factor receptor (EGFR, Homo sapiens, UniProt P00533)
SMILES,target,assay,test system,setting,IC50 [nM]
COCC1CN(C2CCN(c3cc(OC)c(Nc4ncc(Br)c(Nc5ccc6c(c5P(C)(C)=O)OCCO6)n4)cc3C)CC2)C1,"Epidermal growth factor receptor (EGFR, Homo sapiens, UniProt P00533, del746-750/T790M)","kinase activity, TR-FRET",,together with: ATP at Km,0.19
COc1cc(N2CCOCC2)ccc1Nc1ncc(Cl)c(Nc2ccccc2NS(C)(=O)=O)n1,"Epidermal growth factor receptor (EGFR, Homo sapiens, UniProt P00533, C797S/L858R/T790M)","enzyme activity, inhibitor, TR-FRET",,,2.92
C=CC(=O)Nc1cc(Nc2nccc(Nc3cc(Cl)c(F)cc3C(C)(C)O)n2)c(OC)cc1N1CC[C@H](N(C)C)C1,EGFR L858R/T790M,"enzyme activity, inhibitor",,,1
CCCCCCCCCCCC[N+]1(C)CCOCC1.O=C([O-])c1cc2ccccc2cc1O,EGFR,"enzyme activity, inhibitor, ELISA",,,7560
C=CC(=O)Nc1cc(Nc2ncnc(Nc3ccccc3C(F)(F)F)n2)c(OC)cc1N(C)CCN(C)C,EGFR,"EGFR phosphorylation, inhibitor",A-431,,75
Cc1ccc2c(c1)nc(NC(=O)c1cccc(C(F)(F)F)c1)n2[C@H]1CC[C@H](N)CC1,EGFR,"enzyme activity, inhibitor, TR-FRET",,,300
C=CC(=O)Nc1cc(Nc2ncnc(Nc3cc(Cl)c(F)cc3C(C)(C)O)n2)c(OC)cc1N(C)CCN(C)C,EGFR L858R/T790M,"enzyme activity, inhibitor",,,0.3
COc1c(Cl)cccc1Nc1c(-c2ccncc2C#C[C@@]2(C)CCCN2C(=O)/C=C/CN(C)C)[nH]c2c1C(=O)NCC2,EGFR,,,,5.1
Cc1nn(-c2cccc(N)c2)c(=O)c2cnc(Nc3ccc(N4CCNCC4)cc3)nc12,"Epidermal growth factor receptor (EGFR, Homo sapiens, UniProt P00533, T790M)","enzyme activity, inhibitor",,,> 10000

# For quick reference, copied from above:
SMILES,target,assay,test system,setting,IC50 [nM]
C=CC(=O)Nc1cc(Nc2nccc(Nc3cc(Cl)c(F)cc3C(C)(C)O)n2)c(OC)cc1N1CC[C@H](N(C)C)C1,EGFR L858R/T790M,"enzyme activity, inhibitor",,,1
